Measured values from different studies.
A part holds a random share of what one study measured. Substitutions count along the parent as printed.

Block 1 — technique: protein-binding microarray; molecule type: double-stranded DNA, one strand shown; medium: in vitro; concentration: 0.8 µM; setting: whole 60-bp probe, no competitor; reading: higher = stronger binding; endpoint: fluorescence intensity; all sequences stand within: … GTCTTGATTCGCTTGACGCTGCTG
Target: Centromere-binding protein 1, full length, N-terminal tag (CBF1, Saccharomyces cerevisiae, UniProt P17106, residues 1-351)
Sequence of UniProt P17106 (whole entry, looked up): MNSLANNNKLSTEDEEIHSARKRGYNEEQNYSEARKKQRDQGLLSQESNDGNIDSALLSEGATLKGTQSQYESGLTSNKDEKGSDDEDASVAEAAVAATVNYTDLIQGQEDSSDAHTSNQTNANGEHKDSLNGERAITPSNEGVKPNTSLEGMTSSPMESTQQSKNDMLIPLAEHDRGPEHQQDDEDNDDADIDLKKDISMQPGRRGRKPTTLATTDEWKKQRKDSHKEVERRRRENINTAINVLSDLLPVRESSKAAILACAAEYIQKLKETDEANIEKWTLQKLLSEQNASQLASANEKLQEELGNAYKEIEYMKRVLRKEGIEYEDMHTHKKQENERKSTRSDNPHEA
CTACATTGCCACTATCACGTTGTCAAACTTTGCTTC: 1190 a.u.
GAACACCAGCGTGGTTACGTGCTATCGCCCAGCTAG: 552 a.u.
GAAGGCCAACAAATACTTGGTCACAGAATGCAATAG: 522 a.u.
CCTAACTACTATAGAAACGTGGGATAGCTTCGTACA: 538 a.u.
CTAAGCAAGGGCATTCTGATGTTACCCTAGAAATTC: 501 a.u.
CTACTGATGGTCCATCACGGTCGGGGAACAAACTTC: 542 a.u.
GAAGTCAGGGAAATGCACGAGAAAAGCACTTATTAG: 548 a.u.
GAAATAGGTATTCATATCGTGAACTGCGCAACTTAG: 526 a.u.
GAAAAAAAACGTGATAAGCACGTGGATAATTGTTAG: 6530 a.u.
CTAATATATGGCTATCACATGGCACAGGTATTATTC: 2010 a.u.
GAAAACGTACATGGGTACGTGCACCGGTATTGGTAG: 531 a.u.
GAAGACTAGAATGGGCACGTGATCATAAAATTATAG: 27500 a.u.
CTAAGCAGTACGGCTCTGATGTTTTTCGAACGATTC: 497 a.u.
GAAGTTACCTCATCTCACCTGTTTTGGAAATTATAG: 550 a.u.
CTAAATGAAGTGCATCATGAAATATTCATGACGTTC: 501 a.u.
CTATCTTCAACAGGAAACGTGACGGTACTCATATTC: 1530 a.u.
GAACAAGACACATTTCACCTGATATTGAAGAATTAG: 654 a.u.
CTAATCGCGCATAGCCACGATAAGGCGTGGTGCTTC: 477 a.u.

Block 2 — technique: protein binding microarray; molecule type: double-stranded DNA, one strand shown; medium: in vitro; concentration: not given; reference: not given; reading: higher = stronger binding; endpoint: E-score
Target: Histone acetyltransferase KAT6A, both winged helices, GST fusion (KAT6A, Homo sapiens, UniProt Q92794, residues 1-181)
Setting: 8-mer, flanks averaged, mean of 2 arrays, mostly near background
Residues (chain): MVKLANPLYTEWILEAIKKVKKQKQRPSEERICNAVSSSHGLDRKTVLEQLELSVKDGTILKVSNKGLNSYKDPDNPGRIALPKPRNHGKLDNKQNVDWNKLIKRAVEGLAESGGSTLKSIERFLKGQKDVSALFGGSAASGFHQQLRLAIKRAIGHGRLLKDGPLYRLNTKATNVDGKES
GCTATTAC: 0.0572
AAACTATG: -0.152
ACAGGATA: -0.119
GTATCGTA: 0.01
CCCATCCG: -0.0777
GCGTGACC: 0.186
AGGTCACC: -0.0227
CGGGGGCC: 0.151
GACGACGC: 0.189
GTACTTCA: 0.00302
CAGGACAA: -0.18
AGCGAGCA: -0.0154
AAAATGGT: -0.149
ACCGTCTC: 0.0854
CCGTGCTC: 0.158
CATGTTGG: -0.0585
ATGCCGGA: 0.194
AGGCTGAC: -0.131
CTGCCTGC: -0.126
CGTGTTGC: 0.13
AGAAAAGA: -0.0847
TCAATAAA: -0.129
ATTCAGTC: 0.0929
AGTCAACT: -0.17
CAAAACTG: -0.121

Block 3 — target: CCNE2, cyclin fold, Cln2 fusion (human); technique: yeast growth competition, sequencing; medium: yeast; setting: strong parent motif; reference: not given; reading: higher = stronger binding; endpoint: normalised enrichment score
Starting sequence: SCAPER docking peptide (human); SNARRSLNFGGST
R5D: -0.241
L7M: 0.782
A3S: 0.269
S12E: 1.45
N8D: 1.16
S6F: 1.86
L7P: 0.195
S12I: 1.57
S12T: 0.93
A3V: 1.48
R5A L7A: -0.0687
G10H: 1.2
R5G: -0.842
F9W: 1.88
G10P: 1.1
N2I: 0.338
F9S: 0.183
N2K: 1.3
A3H: 0.385
N2W: 0.156
S12H: 0.938
A3Y: 1.09

Block 4 — technique: DHFR PCA, deep sequencing; medium: yeast; together with: (+)-ABA 58 µM; reference: wild-type fitted maximum; reading: higher = stronger binding; endpoint: relative binding score
Target: ABI1, truncated, D143A, DHFR fusion (Arabidopsis thaliana)
Setting: methotrexate growth selection, single substitutions
Starting sequence: PYL1, truncated, DHFR fusion (Arabidopsis thaliana); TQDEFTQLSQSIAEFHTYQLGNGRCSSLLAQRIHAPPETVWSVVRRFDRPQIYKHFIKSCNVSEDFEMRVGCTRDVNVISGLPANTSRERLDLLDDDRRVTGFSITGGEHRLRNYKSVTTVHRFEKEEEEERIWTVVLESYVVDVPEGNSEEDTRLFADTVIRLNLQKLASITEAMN; partner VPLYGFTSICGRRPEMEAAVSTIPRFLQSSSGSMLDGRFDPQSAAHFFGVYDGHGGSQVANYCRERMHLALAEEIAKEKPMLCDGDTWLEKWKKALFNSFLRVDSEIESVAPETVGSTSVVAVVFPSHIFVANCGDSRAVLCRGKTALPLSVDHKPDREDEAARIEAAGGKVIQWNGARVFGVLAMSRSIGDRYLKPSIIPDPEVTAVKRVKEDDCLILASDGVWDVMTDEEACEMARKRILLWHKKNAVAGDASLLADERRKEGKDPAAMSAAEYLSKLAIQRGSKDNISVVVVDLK
L94H: 87.8%
D92P: -14%
L112Q: 6.17%
E147M: 79.4%
S26Y: 77.1%
D159N: 82.3%
D92C: 41.3%
R69H: 88.3%
V43S: 24.6%
T101A: 69.5%
V145A: 46.9%
S27Y: 18.8%
T86W: 91%
L28F: 66.7%
F66R: 74.2%
H34E: 87.3%
V100N: 4.61%

Excerpt of the above (block 4):
V43S: 24.6%
D92P: -14%
H34E: 87.3%
V100N: 4.61%
L94H: 87.8%
R69H: 88.3%
T101A: 69.5%
